Measured values collected from several papers.
A part holds a random share of what one study measured.

Block 1
Target: RNA binding protein fox-1 homolog 2, RRM domain, GST-SBP tag (RBFOX2, Homo sapiens, UniProt O43251-10, residues 100-194)
Method: RNA Bind-n-Seq
Molecule type: RNA
Sample: in vitro
Tested at: 365 nM
Notes: natural RNA segment, single round, ends assumed
Reference: no-protein control
Direction: higher = stronger binding
Constant ends, left off below: GGGAGUUCUACAGUCCGACGAUC … UGGAAUUCUCGGGUGCCAA
Residues (chain): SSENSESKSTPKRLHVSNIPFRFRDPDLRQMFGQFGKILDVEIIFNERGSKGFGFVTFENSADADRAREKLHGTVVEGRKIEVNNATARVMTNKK
`GCAGAUUGGGGCCAGGGAGUCAGCAAGGCACCCCAGCUCUGUGAUGUGACUUUGGGCGAGUCUCAGUGCCACUUGGUCCCCAGCCAUGGACUCUAUACAGUGAGGGCCAC` — result for “RBNS enrichment (R)”: 0.232.
For `ACUGUGAAGUGUUGAGGACAGUGUUGAUGCCUAACUAGUUUUCUUAGAUGGAAACAGAGACAUUGAGCCCUCUCUCUUGAUCGUAAACCACUCCAGAACGGCCACGGGUU`, “RBNS enrichment (R)” read 0.221.
`UGAAUUGUGGCAGAGCUUAGAUCCUGCACCCAGGGGUCUUUUUUUCAAACAGCAUCUUGCUCAGUUCUGUGAACAGAAGGCUUUGUUACUGAAGGAGGUGGAAGAGGAGU` — result for “RBNS enrichment (R)”: 0.438.
`UGUAUUUGCUAUUGUUUUGAAAGUGCUGACAAAGUUUAUAUUUGUAACAUCAGCCUUCCUCGCCCAUCUCUUUCCAUCUGUCUCUUCUUCAUUAAACACUUACUGAGUAU`: “RBNS enrichment (R)” 0.762.
Under “RBNS enrichment (R)”, `AAGCUACAUUGGCAGCAGCGAAUGUUGCAGCUUCUUGUGCAAGUACACCCUUCAUGGAAGUGUUGACAUGUGCCAAAGGGUACUCUGCACAUCACUUCCUUCCUGAAAGC` is recorded as 0.238.
For `CUUUGAACAGCUGUAUAUUAGUCCAUAACAUAACUACAAGAUUAGAUAGAGGCAACAUACUGUUAAGUCAUAUUUAAGUAAUUAGUUUUCUCUUAAUGUUGCCAAUAGAA`, “RBNS enrichment (R)” read 0.374.
For `ACAGAUUUUCUUGGGAGCUUGAAUAGCCCUUCUUGGACAAUGGGGUCUGGAAAUAGGGCUGUCUGCUUAUGGAAAUGCCAUCUGUAGACCUUGAGAGUCAACUGUACAGA`, “RBNS enrichment (R)” read 0.659.
`GCUGCUUCUGUGUGUCAAGGCUUCAACCAGGUCCCUCUUCCUCUGACUCUGGCACCAUGCCAGCUGACUGCUACCCAGGUCAGAUUGGACUCAUGGUCAAUACCCAGCCA`: “RBNS enrichment (R)” 0.355.
Under “RBNS enrichment (R)”, `CCGUUGGAACUAUCAGUGGCGUCUCCCAUGCACACGCCCUCUGCUUUCUCUUUCCUAGACUCGCGGUGCUCACAUCCAGACAUUACCUUGUUGGUAGCCCCCAAGUGGCG` is recorded as 0.386.
`GGAGGGAUCUGAGCGCAGGAAGACGCAGAACAACAGAAAUAGCCGCCCCUCCCCGCCCACUGUGCCUGUUGGCCUAUCAUAGAUCUCUAUGUUCUUGACUUUGUCUCUCC` — result for “RBNS enrichment (R)”: 0.364.
Under “RBNS enrichment (R)”, `GCAUAGACACAUAAUUAUGCUUAAGCUUUUAACAGCAUUUUAACCGCUCUAAAAAUUACCAGAGUAAGAAAAAGCUAGGUACUUUAAAGUGAGUUUGAGAAACAAGUUGA` is recorded as 1.08.
`GCUGCAGCCCUGCUGGUCCCUUCAGCUCCACGCUGCUGCUCUGGCGAGGUUUUAAAGGGUGCCAUGGGCUCUCACGUCCUUCGUGUUGCAGUAUUUAUUUUUACUGGGUG` — result for “RBNS enrichment (R)”: 0.404.

Block 2
Target: RING finger protein unkempt homolog, zinc fingers 1-6, GST-SBP tag (UNK, Homo sapiens, UniProt Q9C0B0, residues 30-357)
Sequence of UniProt Q9C0B0 (30-357, looked up): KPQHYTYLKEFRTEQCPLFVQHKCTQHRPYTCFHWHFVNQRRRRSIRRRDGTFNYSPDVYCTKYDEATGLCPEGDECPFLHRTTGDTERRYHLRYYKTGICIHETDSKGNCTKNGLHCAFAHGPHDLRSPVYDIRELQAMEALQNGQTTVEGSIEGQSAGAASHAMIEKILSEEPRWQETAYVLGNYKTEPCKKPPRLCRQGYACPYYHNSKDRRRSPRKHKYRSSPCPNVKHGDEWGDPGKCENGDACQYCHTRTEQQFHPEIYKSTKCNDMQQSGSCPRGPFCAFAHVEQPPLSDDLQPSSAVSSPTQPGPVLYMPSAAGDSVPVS
Method: RNA Bind-n-Seq
Molecule type: RNA
Sample: in vitro
Tested at: not given
Notes: RNA with constant flanks, ends assumed
Reference: input RNA pool
Direction: higher = stronger binding
Constant ends, left off below: GGGAGUUCUACAGUCCGACGAUC … CAACAGAGGAUUGAGCAUCA
The bound/input enrichment of `GAAGAAGGCUGCUUUAUGUUUAUUUUUCAAGACUUUAAAAAUAUUUUUUGGUUGUAUUGCACCCGGAAAUCUCUCCCACCUCUCCCUUUUCUCUUUCUUUCCCUAUACAAAAUAAAAGGC` is reported as 1.42 ratio.
For `CCUGCUCAGAUCACCAUGAAAGUAAUCCAAGGCUUGUACAGUGGGGUCACCACAGUGGAACCCGAUACUUUGGCUGCUGAAACAGCUGCAACCUUGACUACUAAGCACCCUGACUAUGCU`, the bound/input enrichment was 0.251 ratio.
`CUGUGUAAUGAAAAACUAUUAAAAAAGGCUCGUAUACAUCCAUUUCAUAUUUUGAUCGCAUCCGAAACUUACAAGACAGGUCAUGGUCUCAGAGGGAAACUGAAGUGGCGCCCUGAUGAA` has a bound/input enrichment of 0.292 ratio.
With `AAGGAUGCAAGGUCCGAUUCCUGGCAGCUCGUGCAGACCCAGUGCCUACCUUCCUCUUCCAACCGCAUUGGCUGCUCCCCGUUCCAGUUCCAUGAAGCCACCAUUUAUAAUGCUGUCAAC` the bound/input enrichment was 0.116 ratio.
`AAAAGCCGGGGAGGCUUUUUUAAUUCAUUUGAAUGUAUGAUUCUCGGACACUCCUUUUGACUCCGGGAUUUGCUUGAAUGCAUAAAGUCAAGAAGCAGAUAGGCUGGCAGGUUUCCAGGC` gave a bound/input enrichment of 0.276 ratio.
For `CUUCGGGCUGCUAAUAUUCUUGUAGGAGAAAAUCUUGUGUGCAAAAUAGCAGACUUUGGUUCCGCAAGGUUAAUUGAAGACAAUGAAUACACAGCAAGACAAGGUGCAAAAUUUCCAAUC`, the bound/input enrichment was 1.2 ratio.
`CUCCCGGGGGGAGUCCAGGCCUUGGCUUUACCCAACGAAGAGGGUGCCACACCAUCCGACUCCGCUUUACGUGAAGGACACUCCAAGCUGGUGGAAGACGUCACAAAUUUUCAGGGCAGA` gave a bound/input enrichment of 0.154 ratio.
`CUUUGAAAGAUGAACAGUGUAGCCUGUCUGAAACUGUAGAGCCUUCAGGUGUCUUUAUUUAACCGGUUGGGAGUGUGCAAGGGCUUCCUUAGCAGGGACAGAAGGCAAUCCUUUCAUGGU` has a bound/input enrichment of 0.291 ratio.
With `AAGGGUGAUUACUUCCGGUACCUUGCUGAAGUUGCGUGUGGUGAUGAUCGAAAACAAACGACCGAUAAUUCCCAAGGAGCUUACCAAGAGGCAUUUGAUAUAAGCAAGAAAGAGAUGCAA` the bound/input enrichment was 0.184 ratio.
The bound/input enrichment of `GAGAUGAAGAAGAAGAUUAACCUGGAGUUAAGGAACAGAUCCCCGGAGGAGGUGACAGAGUCCGUCCUUGAUAAUUGCCUGUGUGUCAAUGGGGAAAUUGAAGGCCUGAAUGAUACUUUC` is reported as 0.251 ratio.
`GGAGUUUUUUAACUGAUUUAGCCAGGUGGCAAUCAUGAGUGAAUGGAUGAAGAAAGGCCCCUCCGAAUGGCAAGAUUACAUUUACAAAGAGGUCCGAGUGACAGCCAGUGAGAAGAAUGA` gave a bound/input enrichment of 0.369 ratio.

Block 3
Target: Transcriptional repressor CTCF (CTCF, Homo sapiens, UniProt P49711, residues 1-727, full length assumed)
Sequence of UniProt P49711 (whole entry, looked up): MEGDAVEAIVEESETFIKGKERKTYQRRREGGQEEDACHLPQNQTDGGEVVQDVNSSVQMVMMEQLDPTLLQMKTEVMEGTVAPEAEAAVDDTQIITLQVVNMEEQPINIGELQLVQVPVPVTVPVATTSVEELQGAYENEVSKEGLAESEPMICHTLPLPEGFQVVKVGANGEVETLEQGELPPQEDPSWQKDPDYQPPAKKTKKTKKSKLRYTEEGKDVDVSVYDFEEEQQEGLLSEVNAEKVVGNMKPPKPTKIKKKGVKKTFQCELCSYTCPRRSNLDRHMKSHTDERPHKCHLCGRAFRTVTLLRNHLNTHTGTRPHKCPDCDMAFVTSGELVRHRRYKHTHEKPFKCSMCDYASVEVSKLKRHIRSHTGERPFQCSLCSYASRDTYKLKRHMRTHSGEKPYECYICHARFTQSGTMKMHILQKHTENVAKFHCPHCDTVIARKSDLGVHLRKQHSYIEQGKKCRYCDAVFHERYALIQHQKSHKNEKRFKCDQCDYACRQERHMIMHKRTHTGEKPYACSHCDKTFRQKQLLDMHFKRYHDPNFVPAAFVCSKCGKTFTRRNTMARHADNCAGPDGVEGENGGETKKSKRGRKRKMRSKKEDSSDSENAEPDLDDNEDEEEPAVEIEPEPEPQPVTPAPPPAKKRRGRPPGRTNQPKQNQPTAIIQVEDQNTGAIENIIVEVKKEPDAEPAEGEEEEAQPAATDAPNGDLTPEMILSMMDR
Method: protein-binding microarray
Molecule type: double-stranded DNA, one strand shown
Sample: in vitro
Tested at: not given
Notes: k-mer, scored over probes, only values ≥0.25
Direction: higher = stronger binding
With `TGAATTAA` the E-score was 0.337.
`ATTTTATA` has an E-score of 0.329.
For `CTATATTA`, the E-score was 0.349.
With `AATAATAT` the E-score was 0.363.
The E-score of `ATATGGCG` is reported as 0.259.
The E-score of `CGAGTATA` is reported as 0.277.
`AATAAACG` gave an E-score of 0.27.
The E-score of `TAACGCAA` is reported as 0.268.
The E-score of `CTACAACC` is reported as 0.269.
`ATAATTGC` has an E-score of 0.319.
The E-score of `ATACTTAA` is reported as 0.26.
`TAACATAA` has an E-score of 0.278.
For `GATGGCGC`, the E-score was 0.31.
`TATTTACA` has an E-score of 0.31.
`ATTAGTGC` has an E-score of 0.278.
For `AGTGGCGC`, the E-score was 0.459.
For `AAATGAGT`, the E-score was 0.256.
The E-score of `AAAAAAAT` is reported as 0.298.
`TATGTGCA` gave an E-score of 0.325.
For `AAGTAATT`, the E-score was 0.29.
`ATATTCAG` has an E-score of 0.258.
With `CGTATTTA` the E-score was 0.333.
`AAGTATAC` has an E-score of 0.315.
For `ATCGTACA`, the E-score was 0.253.

Block 4
Target: Fragile X messenger ribonucleoprotein 1, C-terminal low-complexity region (Fmr1, Mus musculus, UniProt P35922)
Method: RNA Bind-n-Seq
Molecule type: RNA
Sample: in vitro
Tested at: 200 nM
Notes: whole 134-nt RNA, ends assumed
Added: 150 mM KCl
Reference: input library
Direction: higher = stronger binding
Constant ends, left off below: GGGAGUUCUACAGUCCGACGAUC … UGGAAUUCUCGGGUGUCAAGG
`CAAGUCCUGUGCUACACAUCGUAUGUACCGAAUCGGAAAGGAAAGGUUUUUUUGGAAAGUAUUAUGUUACGCCGUUCGGAUCUGCACUUC` has a log2 enrichment of -0.921.
The log2 enrichment of `CUGUGCUACACAUCGUAUGUACCGAAUCGGGUUUUUUUGGGUUUUUUUGGGAAAAAAAGGGAAAGUAUUAUGUUACGCCGUUCGGAUCUG` is reported as -1.3.
The log2 enrichment of `UCAAGUCCUGUGCUACACAUCGUAUGUACCGAAUCGGGGAAGGGAAGGGGAAGGAAAGUAUUAUGUUACGCCGUUCGGAUCUGCACUUCC` is reported as 0.067.
The log2 enrichment of `CCUGUGCUACACAUCGUAUGUACCGAAUCGGGGAAAAAAGGGGAAAAAAGGGGAAAAAAGGAAAGUAUUAUGUUACGCCGUUCGGAUCUG` is reported as -0.577.
`CACAGACAACACGCACCCACACAGACACAGAGGGAAGGGGUUGGGAUGGGGACAGGGUGCACAGCAGGGCGGGGGAGGACCCCAGCCCCU` has a log2 enrichment of 1.23.
The log2 enrichment of `CAAGUCCUGUGCUACACAUCGUAUGUACCGAAUCGGUUUUUGGUUUGGUUUUUGGAAAGUAUUAUGUUACGCCGUUCGGAUCUGCACUUC` is reported as -0.718.
The log2 enrichment of `GCAGGAAGUAAAAACAAAUGGAAAUGCUUCGGAUAGUGGCAGGGGUGGGGGUUGCUAAGGAAACGGUGGGAUGGGAGUGGGUAAAGAGUU` is reported as 0.243.
`CUCAAGUCCUGUGCUACACAUCGUAUGUACCGAAUCGGUGGGGUGGGGUGGGGAAAGUAUUAUGUUACGCCGUUCGGAUCUGCACUUCCA` gave a log2 enrichment of 1.02.
For `UGGGAGGUGGAAUUUGUUUAUUUUUUUAGCUCAUUUCCAGGGGUGGGAAUUUUUUUUUAAUAUGUGUCAUGAAUAAAGUUGUUUUUGAAA`, the log2 enrichment was -0.00928.
For `UCCUGUGCUACACAUCGUAUGUACCGAAUCGGGUUUUUGGGGUUUUUGGGUUUUUGGGGAAAGUAUUAUGUUACGCCGUUCGGAUCUGCA`, the log2 enrichment was 0.52.

Some of these lines once more (block 2):
`CUGUGUAAUGAAAAACUAUUAAAAAAGGCUCGUAUACAUCCAUUUCAUAUUUUGAUCGCAUCCGAAACUUACAAGACAGGUCAUGGUCUCAGAGGGAAACUGAAGUGGCGCCCUGAUGAA` has a bound/input enrichment of 0.292 ratio.
With `AAGGAUGCAAGGUCCGAUUCCUGGCAGCUCGUGCAGACCCAGUGCCUACCUUCCUCUUCCAACCGCAUUGGCUGCUCCCCGUUCCAGUUCCAUGAAGCCACCAUUUAUAAUGCUGUCAAC` the bound/input enrichment was 0.116 ratio.
`AAAAGCCGGGGAGGCUUUUUUAAUUCAUUUGAAUGUAUGAUUCUCGGACACUCCUUUUGACUCCGGGAUUUGCUUGAAUGCAUAAAGUCAAGAAGCAGAUAGGCUGGCAGGUUUCCAGGC` gave a bound/input enrichment of 0.276 ratio.
For `CUUCGGGCUGCUAAUAUUCUUGUAGGAGAAAAUCUUGUGUGCAAAAUAGCAGACUUUGGUUCCGCAAGGUUAAUUGAAGACAAUGAAUACACAGCAAGACAAGGUGCAAAAUUUCCAAUC`, the bound/input enrichment was 1.2 ratio.
